Results gathered from unrelated publications.
Every numbered part comes from another study and shows a few of its results, in no order. Substitutions count along the parent as printed.

Study 1 — method: protein binding microarray; form: double-stranded DNA, one strand shown; medium: in vitro; concentration: not given; reference: not given; reading: higher = stronger binding; quantity: E-score
Target: Histone acetyltransferase KAT6A, both winged helices, GST fusion (KAT6A, Homo sapiens, UniProt Q92794, residues 1-181)
Setting: 8-mer, flanks averaged, mean of 2 arrays, mostly near background
Target sequence (chain): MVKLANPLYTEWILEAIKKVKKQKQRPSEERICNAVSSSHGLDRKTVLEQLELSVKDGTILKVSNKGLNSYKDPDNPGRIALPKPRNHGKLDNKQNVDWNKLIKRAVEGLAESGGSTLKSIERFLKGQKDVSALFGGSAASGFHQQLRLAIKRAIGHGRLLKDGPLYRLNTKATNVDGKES
AGAGCTCG: 0.0491
AATGACGC: 0.13
CGTCAACC: 0.0715
AAAATCTT: -0.0561
CACTGAAA: -0.0618
GTATATCA: 0.00363
CCTGCTAC: 0.00772
CGGAACCA: 0.156
TAGCGCTA: 0.349
CCCAGACG: 0.0418
TGACTACA: -0.111
AGCCGCAC: 0.145
AAGCGAGA: 0.0841
CTCCCCAC: -0.157
ACCACGTG: -0.0162
CACAACAA: 0.00991
CAGAACTG: -0.0551

Study 2 — method: EMSA with sequencing; form: double-stranded DNA, one strand shown; medium: in vitro; concentration: 10 and 20 nM; reference: negative control set to 0; reading: higher = stronger binding; quantity: normalised bound fraction
Target: Hepatocyte nuclear factor 3-alpha (Foxa1, Mus musculus, UniProt P35582, residues 1-468, full length assumed)
Setting: whole designed probe, mean of two concentrations, ends assumed
Shared flanks, not repeated: GTGAGCGGTGCCCATTGATGGGGAAC … TTTCACTGGGATCGTGGGGAC
Target sequence (chain): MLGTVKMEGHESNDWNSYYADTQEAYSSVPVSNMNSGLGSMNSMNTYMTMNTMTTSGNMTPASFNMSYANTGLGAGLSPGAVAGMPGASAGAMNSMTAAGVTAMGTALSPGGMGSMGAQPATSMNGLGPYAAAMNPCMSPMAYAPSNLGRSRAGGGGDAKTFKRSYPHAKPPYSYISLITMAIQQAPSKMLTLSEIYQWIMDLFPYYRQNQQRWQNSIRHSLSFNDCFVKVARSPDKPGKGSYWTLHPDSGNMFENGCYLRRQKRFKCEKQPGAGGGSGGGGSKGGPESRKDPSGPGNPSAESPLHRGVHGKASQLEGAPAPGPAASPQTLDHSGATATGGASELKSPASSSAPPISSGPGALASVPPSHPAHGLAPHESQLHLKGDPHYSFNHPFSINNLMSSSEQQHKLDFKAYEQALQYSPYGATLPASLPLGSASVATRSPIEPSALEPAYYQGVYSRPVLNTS
ATCTTCCCCCTCTTCCTTGCCCCACCAGCTCACCTTCCCGGGTTATTTGCAGATAGGAAAATAAATAAAGCCGGCATTCGTGATGAATCATGACGCGCATACTGCTGTTTGCTCTGGATCTAACATGGTCCTTTGGCGACGCCAGGCTCCGGGAGAGCAAAGCACCGTGTCAGGGCCATGATCCGGGGTGGCC: 0.367 ratio
TTTCCAAACCACCATCTATCTCACTGGCTTAGCAGCAGCAGCTGAGGAGTGGAAGCCAGAAGTACATTCCCATGGAGGAAAGTAAACACTTCATGTTTGCACATCCATCTCAGGAATCCTCTTAGTCACTGAAGGAAAGCAGACAGGAGTGAGTCCAAGGTTTTGGTCAAACCCTGCCTGGCATGAACTAATG: 0.406 ratio
TAAATTCCATATAAATTATACATACAAATACATATTATATATGATATAAATATTTGTTATAACATATTATATAAAATATAAATATATACAATGTAAACATATATATTATTCTATACATGTAAATTATATAGAAAGAATAATATATAAAATGTATATATCTATGTCAGGCACAATTACGTGTGTTATTCAATTT: 0.322 ratio
ATCTTCCCCCTCTTCCTTGCCCCACCAGCTCACCTACGGGGGTTATTTGCAGATAGGAAAATAAATAAAGCCGGCATTCGTTAACCCTCTTCTGGCGCAAACTGCTGTTTGCTCTGCATCTAACATGGTCCTTACGCGAGGCGTGGCTCCGGGAGAGCAAAGCACCGTGTCAGGCGCATGATCCGGGCTCGCC: 0.353 ratio
CTCATTCCTTGCTTCCGCCAATAATCTGACTAGTAAAGAAGTCACTGCATGCCACAAATTGTCAGTGCTGACTTCCTCAACAAGGAAGTTATTTATTTACTTATTTAATATATGAGTGACTCAGATGCAAATTCCATCTTGAGAATACCAACTCCTGATGCCAACTGATTGTCAGTCATGGCTACAACAGGAG: 0.455 ratio
TTTATCACAGGACAATGAATATATACCTCAAAATAAAAGATGTAGAATACTGAAATTACATAATTTGGTTAAACAAAACAATACATGACTATGTAATCTCGGCTGAGCAGCACATACCTCCTAGTGCTTTTTTTTAAATGTCAAACAGTCATAATTTTTAATCTCCTTTCTTGAGGGTGTCAAAAAAATCTTT: 0.0522 ratio
GCAATAGCAAAAGTAAGGCAGGGAAGTACAAATTCAATAGCAAACAAATAGTGGTATGGCCATGTCACAATACCCTGCGGCCATTTCAAGTGAAGATTACAAAGTTTGTAGGCAGACAGTCACCTCGAAATTACAAAGCTCCGACTGTGCGGGGCGCTGGGTTGGGCACGGAGCAGATAGGGCCAGAAGGCCA: 0.234 ratio
CATGTACAAACAAAATATGGGTTGTGTAATTTCAGTAATTCCATGTACAAGTTAAACACTCTGAAAATTGCATTTAAAATGTCATTGCACAATGTAATCTTGAATGCTAACAATCTTTTTTTTTTTTCCTGAGACGGAGTCTTGCTCTATCGCCCAGGCTGGAGTGCAGCGGCACAATCTCTGCTTACTGCCA: 0.264 ratio

Study 3 — method: RNA Bind-n-Seq; form: RNA; medium: in vitro; concentration: 200 nM; setting: whole 134-nt RNA, ends assumed; added: 150 mM KCl; reference: input library; reading: higher = stronger binding; quantity: log2 enrichment
Target: Fragile X messenger ribonucleoprotein 1, C-terminal low-complexity region (Fmr1, Mus musculus, UniProt P35922)
Shared flanks, not repeated: GGGAGUUCUACAGUCCGACGAUC … UGGAAUUCUCGGGUGUCAAGG
CACAGACAACACGCACCCACACAGACACAGAGGGAAGGGGUUGGGAUGGGGACAGGGUGCACAGCAGGGCGGGGUAGGAUCCCAGCCCCU: 1.22
UGGGAGGUGGAUUUUGUUUAUUUUUUUAGCCCAUUUCCAGGGGUGGGAAUUUUUUUUUAAUAUGUGUCAUGAAUAAAGUUGUUUUUGAAA: 0.132
UAACUUUAGAGGAGGAUCUGAUGGAUAUGGCAGUGGACGUGGAUUUGGGGAUGGCUAUAAUGGGUAUGGAGGAGGACCUGGAGUUGGCAA: 0.16
CCUGUGCUACACAUCGUAUGUACCGAAUCGGGAAAAAAAGGGAAAAAAAGGGAAAAAAAGGAAAGUAUUAUGUUACGCCGUUCGGAUCUG: -1.02
UGGGAGGUGGAUUUUGUUUAUUUUUUUAGCUCAUUUCCAGGGGUGGGAAUUUUUUUUUAAUAUGUGUCAUGAAUAAAGUUGUUUUUGACA: 0.534
AAGUCCUGUGCUACACAUCGUAUGUACCGAAUCGGGGAGGGGUUUGGGGUUUGGGGAAAGUAUUAUGUUACGCCGUUCGGAUCUGCACUU: 1.37
CCUGUGCUACACAUCGUAUGUACCGAAUCGGGGAAAAAAGGGAAAAAAGGGGAAAAAAGGGAAAGUAUUAUGUUACGCCGUUCGGAUCUG: -0.453
UGAAAAUUCUCGACUGGCUGCUGAGGUUUACAAAGACAUGCCGGAAACCAGCUUUACUCGAACCAUUUCUAAUCCUGAGGUGGUUAUGAA: -1.53
GCAGGAAGUAAAAACAAAUGGAAAUGCUUCGGAUAGUGGCAGGGGUGGGGGUUGCUAAGGAAAAGGUGGGAUGGGAGUGGGUAAAGAGUU: 0.377
UCAAGUCCUGUGCUACACAUCGUAUGUACCGAAUCGGUGGUUUUUUUGGUUUGGAAAGUAUUAUGUUACGCCGUUCGGAUCUGCACUUCC: -0.488
GUCCUGUGCUACACAUCGUAUGUACCGAAUCGGGCCCCCCGGGCCCCCCGGCCCCCCGGAAAGUAUUAUGUUACGCCGUUCGGAUCUGCA: -0.31
CCUGUGCUACACAUCGUAUGUACCGAAUCGGCCCCCCGGGGCCCCCCGGGGCCCCCCGGGAAAGUAUUAUGUUACGCCGUUCGGAUCUGC: -0.77
UGGAGAAGCGCUACCUGGCUGCUCAGCGUGAGGCAACAUCCAUCCAUGACCUCAAUGACAAGCUGGAGAAUGAGCUGGCCAACAAGGAGU: -1.05
AAGUCCUGUGCUACACAUCGUAUGUACCGAAUCGGGUUUUUGGGUUUGGGUUUGGGAAAGUAUUAUGUUACGCCGUUCGGAUCUGCACUU: 0.807

Study 4 — target: CCND1, cyclin fold, Cln2 fusion (human); method: yeast growth competition, sequencing; medium: yeast; setting: weak parent motif; reference: not given; reading: higher = stronger binding; quantity: normalised enrichment score
Starting sequence: RB1 docking peptide (human); PKPLKKLRFDIEG; partner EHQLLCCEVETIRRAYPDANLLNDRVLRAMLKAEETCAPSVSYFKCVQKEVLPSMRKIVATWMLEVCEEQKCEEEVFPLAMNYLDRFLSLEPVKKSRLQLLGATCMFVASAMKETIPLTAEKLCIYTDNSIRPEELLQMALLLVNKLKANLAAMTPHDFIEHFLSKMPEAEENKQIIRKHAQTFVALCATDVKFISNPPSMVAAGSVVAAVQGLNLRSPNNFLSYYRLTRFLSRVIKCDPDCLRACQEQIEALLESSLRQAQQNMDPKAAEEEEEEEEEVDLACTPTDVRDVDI
L4R: -0.531
D10R: 0.939
P1G: -0.143
E12I: 0.793
K2Q: -0.438
L7F: -0.19
L7G: 0.031
P1K: 0.237
D10P: 0.126
F9M: 0.105
R8L: -0.0726
L4H: -0.379
K6I: 0.559
L4K: -0.682
K2G: -0.0977
K6T: 0.141
K5A L7A: -0.136
R8N: 0.219
P3H: -0.531
L7I: -0.139
P3T: -0.458
F9K: -0.0499
E12L: 0.176
F9G: 0.416
P1I: -0.42

Study 5 — method: RNA Bind-n-Seq; form: RNA; medium: in vitro; concentration: not given; reference: input RNA pool; reading: higher = stronger binding; quantity: bound/input enrichment
Target: RING finger protein unkempt homolog, zinc fingers 1-6, GST-SBP tag (UNK, Homo sapiens, UniProt Q9C0B0, residues 30-357)
Setting: RNA with constant flanks, human and mouse sites, ends assumed
Shared flanks, not repeated: GGGAGUUCUACAGUCCGACGAUC … CAACAGAGGAUUGAGCAUCA
Construct (chain): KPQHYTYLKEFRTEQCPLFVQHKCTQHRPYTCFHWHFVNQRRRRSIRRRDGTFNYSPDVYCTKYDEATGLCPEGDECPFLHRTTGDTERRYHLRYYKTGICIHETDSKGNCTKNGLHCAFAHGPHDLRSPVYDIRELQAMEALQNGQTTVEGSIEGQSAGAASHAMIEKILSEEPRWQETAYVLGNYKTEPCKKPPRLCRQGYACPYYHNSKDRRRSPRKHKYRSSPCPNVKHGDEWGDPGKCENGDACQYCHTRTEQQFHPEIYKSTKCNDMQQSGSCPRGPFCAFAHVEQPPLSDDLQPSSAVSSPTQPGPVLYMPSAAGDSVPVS
GCAGCUAUUCCGCAUGCAGCAGAAGAUAUUCAAGGAGAUGACCGAUGGAUGUCUCAGCACAACAGAUUUGUUUUGGACUGUAAAGACAAAGAGCCUGAUGUACUGUUCGUGGGAGACUCC: 0.279 ratio
GUUCAAGAGGAUUUGCCUUUGUAUAUUUUGAAAAUGUAGAUGAUGCCAAGGAAGCUAAAGAACGUGCCAAUGGAAUGGAGCUUGAUGGGCGUAGGAUCAGAGUUGAUUUCUCUAUAACAA: 0.453 ratio
UUUACAGCAGAAGACAGUGGGAAAGAGAGCAAGACUCCUCCCGCGGAAGGACAAGAGAAGCAGCUGGUUACAUGGAGACUGAAGCUCACCCCUGUUGACUACCUGCUGGGCGUGGCCGAC: 0.25 ratio
GUCUUCUCUUCUUCCUGUUUGUUCUCCCCGUGUUGUCCUCCUGCUGGCCAAGCGGCCUCUUAGUAGUGGUGGGUUUGGUGAAGGUAUCUUCUCUACCCAGCGCUUGACCUGAGUGGUGUG: 0.304 ratio
AGCUUGAGCAGUUUGUUAAAGAAUGACAUUUCAGAUUCGGGAAUUGUGGGGCUUCAGCCCAUAGACUUUGUCGCCAGUGCUCAUCAGCAUCCAGUGAGUGAGAGGCAAGAGGAGAUUCCC: 0.223 ratio
CACAGCAGUUGACAGCAAGAUGGAGAAGUAUGGCUGACCCCACCCAGUGCCUAGGAGGCAAAUGCAUGAGAGCCUGAGGUGUUUGAUAGGAGCAGGCCACCCAGUGUAUCUGCAAGUGAU: 0.134 ratio
GCCAUCAACCGCCAGAUCAACCUGGAGUUGUAUGCCUCCUACGUCUAUCUGUCUAUGUCUUGUUAUUUUGACCGAGAUGAUGUGGCUCUGAAGAACUUUGCCAAAUACUUUCUCCACCAA: 0.346 ratio
UUGUUUUGUUUUGUUUUUGAGACAGAGUCUUGCCCAGGCUUAAACUUCAGCUCCACCUGCCUUAGCCUGUUGGGAUUCAUUUUCUUUAACUCACAAAGAGUAUGCAGAGUAAGCCCCAGU: 0.26 ratio
CAGCCCCGCACAGGGCCAUGAUUGUUUAUGUCCCACUGGCAGGGAGGUCUCCCAGAUUCCAGUGCUGUCAAGCUCCAGGGCCUGCCCACCUCUGAAGCCUAGGCCUUCUCAGUGUCAGGA: 0.0834 ratio
UGCUCUACGGGUGAUGUGAUUCUGCAGGUAAAAGACCAUCAGGUUGUUUUUUUCCACAUCUGGGACACAGUUGUUUGUGUAGGAACAUAACAAGGGUGUACGGCUUUUCUUGAGCCCAUU: 0.168 ratio
UCCGAUAACUCCAGGUUUCCACUUGCAGUUGUAGAAGAGCCAAUUACUGUGGAAGUGGCUUUUAGAAACCCUUUAAAAGUUCCGCUUUUGCUGUCUGAUUUGUCAUUACUCUGGAAGUUU: 0.15 ratio
